# Measurements pooled from the literature.
# Protocols differ between the studies behind these lines. “And” joins repeats or separate records; there may be more than shown. ± marks the error that the study gave.
# B1: ABCF2 protein; sequence looked up; chain MPSDLAKKKAAKKKEAAKARQRPRKGHEENGDVVTEPQVAEKNEANGRETTEVDLLTKELEDFEMKKAAARAVTGVLASHPNSTDVHIINLSLTFHGQELLSDTKLELNSGRRYGLIGLNGIGKSMLLSAIGKREVPIPEHIDIYHLTREMPPSDKTPLHCVMEVDTERAMLEKEAERLAHEDAECEKLMELYERLEELDADKAEMRASRILHGLGFTPAMQRKKLKDFSGGWRMRVALARALFIRPFMLLLDEPTNHLDLDACVWLEEELKTFKRILVLVSHSQDFLNGVCTNIIHMHNKKLKYYTGNYDQYVKTRLELEENQMKRFHWEQDQIAHMKNYIARFGHGSAKLARQAQSKEKTLQKMMASGLTERVVSDKTLSFYFPPCGKIPPPVIMVQNVSFKYTKDGPCIYNNLEFGIDLDTRVALVGPNGAGKSTLLKLLTGELLPTDGMIRKHSHVKIGRYHQHLQEQLDLDLSPLEYMMKCYPEIKEKEEMRKIIGRYGLTGKQQVSPIRNLSDGQKCRVCLAWLAWQNPHMLFLDEPTNHLDIETIDALADAINEFEGGMMLVSHDFRLIQQVAQEIWVCEKQTITKWPGDILAYKEHLKSKLVDEEPQLTKRTHNV
# B2: CCT7; sequence looked up; chain MMPTPVILLKEGTDSSQGIPQLVSNISACQVIAEAVRTTLGPRGMDKLIVDGRGKATISNDGATILKLLDVVHPAAKTLVDIAKSQDAEVGDGTTSVTLLAAEFLKQVKPYVEEGLHPQIIIRAFRTATQLAVNKIKEIAVTVKKADKVEQRKLLEKCAMTALSSKLISQQKAFFAKMVVDAVMMLDDLLQLKMIGIKKVQGGALEDSQLVAGVAFKKTFSYAGFEMQPKKYHNPKIALLNVELELKAEKDNAEIRVHTVEDYQAIVDAEWNILYDKLEKIHHSGAKVVLSKLPIGDVATQYFADRDMFCAGRVPEEDLKRTMMACGGSIQTSVNALSADVLGRCQVFEETQIGGERYNFFTGCPKAKTCTFILRGGAEQFMEETERSLHDAIMIVRRAIKNDSVVAGGGAIEMELSKYLRDYSRTIPGKQQLLIGAYAKALEIIPRQLCDNAGFDATNILNKLRARHAQGGTWYGVDINNEDIADNFEAFVWEPAMVRINALTAASEAACLIVSVDETIKNPRSTVDAPTAAGRGRGRGRPH
# B3: RNA helicase DHX15; sequence looked up; chain MSKRHRLDLGEDYPSGKKRAGTDGKDRDRDRDREDRSKDRDRERDRGDREREREKEKEKELRASTNAMLISAGLPPLKASHSAHSTHSAHSTHSTHSAHSTHAGHAGHTSLPQCINPFTNLPHTPRYYDILKKRLQLPVWEYKDRFTDILVRHQSFVLVGETGSGKTTQIPQWCVEYMRSLPGPKRGVACTQPRRVAAMSVAQRVADEMDVMLGQEVGYSIRFEDCSSAKTILKYMTDGMLLREAMNDPLLERYGVIILDEAHERTLATDILMGVLKEVVRQRSDLKVIVMSATLDAGKFQIYFDNCPLLTIPGRTHPVEIFYTPEPERDYLEAAIRTVIQIHMCEEEEGDLLLFLTGQEEIDEACKRIKREVDDLGPEVGDIKIIPLYSTLPPQQQQRIFEPPPPKKQNGAIGRKVVVSTNIAETSLTIDGVVFVIDPGFAKQKVYNPRIRVESLLVTAISKASAQQRAGRAGRTRPGKCFRLYTEKAYKTEMQDNTYPEILRSNLGSVVLQLKKLGIDDLVHFDFMDPPAPETLMRALELLNYLAALNDDGDLTELGSMMAEFPLDPQLAKMVIASCDYNCSNEVLSITAMLSVPQCFVRPTEAKKAADEAKMRFAHIDGDHLTLLNVYHAFKQNHESVQWCYDNFINYRSLMSADNVRQQLSRIMDRFNLPRRSTDFTSRDYYINIRKALVTGYFMQVAHLERTGHYLTVKDNQVVQLHPSTVLDHKPEWVLYNEFVLTTKNYIRTCTDIKPEWLVKIAPQYYDMSNFPQCEAKRQLDRIIAKLQSKEYSQY
Molecule,target or system,test,test system,setting,how to read,measurement,result
QNLAIESIP,Mamu-B*08301 MHC class I,peptide binding,"peptide, Chinese rhesus macaque",,,IC50,> 20 µM
colistin,Aspergillus fumigatus,,"pkcA G579R, solid minimal medium","100 µM, 4 days, 37 °C",reference: untreated,radial growth ratio,0.738 and 0.773 and 0.756
B1 (ABCF2 protein),,"peptide binding, SILAC pull-down",,concentration not given,reference: non-acetylated over acetylated NIT1 peptide,log2 fold change,1.55
Teicoplanin A2-2,Staphylococcus aureus,,methicillin-resistant,,,MIC,0.5 µg/mL
QQYNKPLCDL,ASPC1 (HLA-A2− HPV−),111In release,peptide,"concentration not given, 16 h, E:T 25:1, IVS 5, with: peptide-generated T-cell line",,specific lysis,0.6%
GWTLNSAGYLLGPHAVDNHRSFNDKHGFT-NH2 (C-amide),,,"peptide, Arrb2 intestinal cKO mice, DSS colitis","ip, 3 µM, 2% DSS",,colon length,5.3 cm and 5.5 cm and 5.2 cm and 5 cm
BCLAF1,,"peptide binding, SILAC pull-down",,concentration not given,reference: non-acetylated over acetylated NIT1 peptide,log2 fold change,-0.226
VRRRRVSRFGRGRGY,Vibrio harveyi,"bacterial survival, plate count",peptide,"20 µM, 4 h, room temperature",reference: untreated control,bacterial killing,92.5%
caspofungin,Aspergillus fumigatus,,solid minimal medium,"0.125 µg/mL, 4 days, unit not given",reference: untreated control,radial growth,0.369 and 0.366 and 0.343
insulin human,,item: GRIA4 mRNA,"uninfected mouse, brain","i.p., dose not given",reference: PBS,fold change,1.09
B2 (CCT7),,"peptide binding, SILAC pull-down",,concentration not given,reference: non-acetylated over acetylated NIT1 peptide,log2 fold change,1.8
mitragynine,,substrate,human liver S9,10 min,,Vmax,0.093 nmol/min/mg protein and 0.0931 nmol/min/mg protein
CCYHCQFCF,Mamu-B*08301 MHC class I,peptide binding,"peptide, Chinese rhesus macaque",,,IC50,> 20 µM
nonaarginine,PorA peptide pore,"peptide binding, planar bilayer single-channel recording",,"0.5 µM, pH 7.4, -10 mV, cis side, 150 mM KCl",,kon,1.2e+06 ± 100000 M⁻¹ s⁻¹
B3 (RNA helicase DHX15),,"peptide binding, SILAC pull-down",,concentration not given,reference: non-acetylated over acetylated NIT1 peptide,log2 fold change,1.08
KLPQLCTEL,ASPC1 (HLA-A2− HPV−),111In release,peptide,"concentration not given, 16 h, E:T 25:1, IVS 5, with: peptide-generated T-cell line",,specific lysis,0.3% and 2.4%
ANKHD1,,"peptide binding, SILAC pull-down",,concentration not given,reference: non-acetylated over acetylated NIT1 peptide,log2 fold change,0.00159
pertussis toxin,,immunostaining,"humanized mouse, SAH model, middle cerebral artery",dose not given,,p-PKA level,27.3 MFI
KANPDVTLV,Mamu-B*08301 MHC class I,peptide binding,"peptide, Chinese rhesus macaque",,,IC50,> 20 µM
cisplatin,A549,,,,,IC50,20 ± 2 µM
aspterric acid,,,Arabidopsis thaliana Col-0 seedlings,"50 µg/mL, with: branched-chain amino acids",,root length,0.83 cm and 0.81 cm and 0.84 cm and 0.85 cm and 0.87 cm and 0.8 cm and 0.86 cm
EFTEDELPSDSCVFGGQKLTL,"IKK, human",,peptide,"500 µM, 10 min, 30 °C, with: IκBα 1 µM",reference: no peptide,IκBα phosphorylation,14% and 19% and 3.25%
GFGDLKSPAGLQVLNDYLADK (EEF1B2),,"peptide binding, SILAC pull-down",,concentration not given,reference: non-acetylated over acetylated NIT1 peptide,log2 fold change,1.47
hexaarginine,PorA peptide pore,"peptide binding, planar bilayer single-channel recording",,"0.5 µM, pH 7.4, +10 mV, trans side, 150 mM KCl",,kon,2.91e+07 ± 3e+06 M⁻¹ s⁻¹
C19orf53 protein,,"peptide binding, SILAC pull-down",,concentration not given,reference: non-acetylated over acetylated NIT1 peptide,log2 fold change,-1.77
SFLLRNPNDKYEPF,BPAEC,fura-2,peptide,100 µM,,peak cytosolic Ca2+,931 ± 74 nM
RTLEDLLMGT,Ca-Ski (HLA-A2+ HPV+),111In release,peptide,"concentration not given, 16 h, E:T 25:1 IVS 5, with: peptide-generated T-cell line",,specific lysis,49.6%
VPGFQALSE,Mamu-A1*02601 MHC class I,peptide binding,"peptide, Chinese rhesus macaque",,,IC50,> 20 µM
GWTLNSAGYLLGPRRIDHLLMIKEMPIARGREEAPGA / YAVDNHRSFNDKHGFT-NH2 (C-amide),,"RT-qPCR, item: Tgfb1","mouse, DSS-induced colitis, colon","ip, 3 µM, 3% DSS, unit not given",reference: Gapdh,mRNA level,1.57 and 1.97 and 1.18 and 0.928 and 1.55
lead,glioblastoma,CCK-8,,"2.5 µM, 24 h, unit not given",reference: untreated control,viability,0.71
DnaJ homolog DNAJA1,,"peptide binding, SILAC pull-down",,concentration not given,reference: non-acetylated over acetylated NIT1 peptide,log2 fold change,0.651
(−)-antroquinonol A,H441,"cytotoxicity, MTS",,72 h,,IC50,> 25 µM

# For quick reference, copied from above:
Molecule,target or system,test,test system,setting,how to read,measurement,result
C19orf53 protein,,"peptide binding, SILAC pull-down",,concentration not given,reference: non-acetylated over acetylated NIT1 peptide,log2 fold change,-1.77
SFLLRNPNDKYEPF,BPAEC,fura-2,peptide,100 µM,,peak cytosolic Ca2+,931 ± 74 nM
